Assay results pooled from the literature.
Each numbered part is a random draw from the data of one study; scales do not carry over between parts.
Chain of UniProt O75582 (whole entry, looked up): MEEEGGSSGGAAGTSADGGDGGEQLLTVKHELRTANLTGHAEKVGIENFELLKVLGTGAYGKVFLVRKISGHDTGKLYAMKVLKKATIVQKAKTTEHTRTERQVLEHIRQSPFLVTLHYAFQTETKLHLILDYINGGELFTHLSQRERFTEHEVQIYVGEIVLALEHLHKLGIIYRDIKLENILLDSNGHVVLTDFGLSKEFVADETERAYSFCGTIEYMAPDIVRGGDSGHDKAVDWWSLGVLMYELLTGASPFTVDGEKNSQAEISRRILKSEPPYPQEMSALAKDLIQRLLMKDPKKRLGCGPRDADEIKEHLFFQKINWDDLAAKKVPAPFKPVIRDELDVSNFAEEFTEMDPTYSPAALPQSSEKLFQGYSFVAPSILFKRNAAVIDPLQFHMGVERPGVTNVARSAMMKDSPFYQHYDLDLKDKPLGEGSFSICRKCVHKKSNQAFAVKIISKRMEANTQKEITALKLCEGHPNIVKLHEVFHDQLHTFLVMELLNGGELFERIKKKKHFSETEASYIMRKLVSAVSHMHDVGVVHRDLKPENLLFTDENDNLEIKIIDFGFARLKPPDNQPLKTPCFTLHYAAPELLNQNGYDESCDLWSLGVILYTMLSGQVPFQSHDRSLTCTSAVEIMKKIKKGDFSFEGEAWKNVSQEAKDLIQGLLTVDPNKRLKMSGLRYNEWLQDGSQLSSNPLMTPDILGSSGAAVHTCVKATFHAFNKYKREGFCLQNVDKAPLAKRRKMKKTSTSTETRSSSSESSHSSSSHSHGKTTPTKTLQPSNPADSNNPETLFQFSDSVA
Chain of UniProt Q9BYP7 (whole entry, looked up): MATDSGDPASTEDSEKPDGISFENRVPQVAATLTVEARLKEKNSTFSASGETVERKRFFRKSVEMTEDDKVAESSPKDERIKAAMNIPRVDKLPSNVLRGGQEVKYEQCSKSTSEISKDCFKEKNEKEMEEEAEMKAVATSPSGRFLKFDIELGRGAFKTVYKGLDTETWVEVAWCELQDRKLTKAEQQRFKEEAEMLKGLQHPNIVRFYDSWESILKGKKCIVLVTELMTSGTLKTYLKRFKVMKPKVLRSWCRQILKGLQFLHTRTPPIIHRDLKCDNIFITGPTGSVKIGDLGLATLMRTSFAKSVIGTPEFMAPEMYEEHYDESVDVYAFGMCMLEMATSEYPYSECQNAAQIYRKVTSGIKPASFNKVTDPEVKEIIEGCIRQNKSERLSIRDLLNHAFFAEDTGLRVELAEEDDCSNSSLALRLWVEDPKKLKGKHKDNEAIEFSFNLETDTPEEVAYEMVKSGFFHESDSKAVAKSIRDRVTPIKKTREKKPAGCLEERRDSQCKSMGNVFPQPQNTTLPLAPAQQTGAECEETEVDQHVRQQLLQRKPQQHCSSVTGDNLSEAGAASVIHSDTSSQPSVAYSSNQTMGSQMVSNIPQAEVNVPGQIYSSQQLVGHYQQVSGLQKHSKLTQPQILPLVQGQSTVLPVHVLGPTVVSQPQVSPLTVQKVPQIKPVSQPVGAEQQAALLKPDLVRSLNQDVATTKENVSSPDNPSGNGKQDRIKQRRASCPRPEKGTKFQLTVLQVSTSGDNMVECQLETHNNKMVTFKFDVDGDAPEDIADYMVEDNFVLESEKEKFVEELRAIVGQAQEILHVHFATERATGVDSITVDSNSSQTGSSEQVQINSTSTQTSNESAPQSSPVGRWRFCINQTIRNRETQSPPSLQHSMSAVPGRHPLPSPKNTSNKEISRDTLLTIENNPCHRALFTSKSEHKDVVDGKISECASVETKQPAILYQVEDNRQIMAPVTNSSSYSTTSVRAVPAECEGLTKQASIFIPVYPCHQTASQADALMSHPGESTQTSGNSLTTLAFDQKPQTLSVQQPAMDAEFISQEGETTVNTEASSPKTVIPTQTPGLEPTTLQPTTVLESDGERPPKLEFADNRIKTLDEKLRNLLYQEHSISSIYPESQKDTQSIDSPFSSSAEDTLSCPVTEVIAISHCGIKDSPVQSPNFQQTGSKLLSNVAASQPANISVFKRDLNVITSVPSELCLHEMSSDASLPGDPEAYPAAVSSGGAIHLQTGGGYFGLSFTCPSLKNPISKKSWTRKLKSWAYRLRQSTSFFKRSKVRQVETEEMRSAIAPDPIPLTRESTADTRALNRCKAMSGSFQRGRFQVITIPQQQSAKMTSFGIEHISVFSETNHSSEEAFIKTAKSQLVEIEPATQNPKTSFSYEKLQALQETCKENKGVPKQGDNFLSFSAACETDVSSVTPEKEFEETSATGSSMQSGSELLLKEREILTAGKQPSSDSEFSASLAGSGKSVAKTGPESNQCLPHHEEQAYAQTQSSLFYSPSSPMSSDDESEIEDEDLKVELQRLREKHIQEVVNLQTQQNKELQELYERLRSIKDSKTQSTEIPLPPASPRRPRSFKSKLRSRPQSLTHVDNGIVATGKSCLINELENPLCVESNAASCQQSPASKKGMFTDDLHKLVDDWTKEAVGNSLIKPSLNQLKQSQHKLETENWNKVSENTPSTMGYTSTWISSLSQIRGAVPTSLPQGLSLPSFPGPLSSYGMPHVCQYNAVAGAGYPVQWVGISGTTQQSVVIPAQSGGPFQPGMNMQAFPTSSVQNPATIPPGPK
Chain of UniProt P51451 (whole entry, looked up): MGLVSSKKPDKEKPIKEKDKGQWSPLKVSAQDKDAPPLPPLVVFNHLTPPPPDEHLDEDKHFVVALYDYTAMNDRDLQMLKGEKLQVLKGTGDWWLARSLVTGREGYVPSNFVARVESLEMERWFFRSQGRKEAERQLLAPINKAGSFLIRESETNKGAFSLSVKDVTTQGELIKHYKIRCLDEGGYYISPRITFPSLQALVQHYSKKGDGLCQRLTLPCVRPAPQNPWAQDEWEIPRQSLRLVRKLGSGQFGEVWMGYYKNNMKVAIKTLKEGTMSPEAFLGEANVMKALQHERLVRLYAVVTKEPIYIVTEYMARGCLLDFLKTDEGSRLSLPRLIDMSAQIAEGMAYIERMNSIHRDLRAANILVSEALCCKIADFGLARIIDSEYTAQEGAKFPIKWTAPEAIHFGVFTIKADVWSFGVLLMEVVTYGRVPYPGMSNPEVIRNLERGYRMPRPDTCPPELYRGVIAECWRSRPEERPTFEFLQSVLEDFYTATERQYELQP
Chain of UniProt Q96PF2 (whole entry, looked up): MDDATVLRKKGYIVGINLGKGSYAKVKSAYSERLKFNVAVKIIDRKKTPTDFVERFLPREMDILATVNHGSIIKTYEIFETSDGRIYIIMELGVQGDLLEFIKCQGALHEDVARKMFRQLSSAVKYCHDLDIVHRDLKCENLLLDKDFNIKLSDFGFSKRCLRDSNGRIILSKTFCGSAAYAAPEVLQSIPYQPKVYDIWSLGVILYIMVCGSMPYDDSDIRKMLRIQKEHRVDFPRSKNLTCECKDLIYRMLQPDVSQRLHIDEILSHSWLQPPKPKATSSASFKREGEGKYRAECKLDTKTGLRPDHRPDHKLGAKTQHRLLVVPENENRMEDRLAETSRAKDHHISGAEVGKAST

Block 1 — technique: SPR
Target: DDB1- and CUL4-associated factor 1 (DCAF1, Homo sapiens, UniProt Q9Y4B6)
Chain of UniProt Q9Y4B6 (whole entry, looked up): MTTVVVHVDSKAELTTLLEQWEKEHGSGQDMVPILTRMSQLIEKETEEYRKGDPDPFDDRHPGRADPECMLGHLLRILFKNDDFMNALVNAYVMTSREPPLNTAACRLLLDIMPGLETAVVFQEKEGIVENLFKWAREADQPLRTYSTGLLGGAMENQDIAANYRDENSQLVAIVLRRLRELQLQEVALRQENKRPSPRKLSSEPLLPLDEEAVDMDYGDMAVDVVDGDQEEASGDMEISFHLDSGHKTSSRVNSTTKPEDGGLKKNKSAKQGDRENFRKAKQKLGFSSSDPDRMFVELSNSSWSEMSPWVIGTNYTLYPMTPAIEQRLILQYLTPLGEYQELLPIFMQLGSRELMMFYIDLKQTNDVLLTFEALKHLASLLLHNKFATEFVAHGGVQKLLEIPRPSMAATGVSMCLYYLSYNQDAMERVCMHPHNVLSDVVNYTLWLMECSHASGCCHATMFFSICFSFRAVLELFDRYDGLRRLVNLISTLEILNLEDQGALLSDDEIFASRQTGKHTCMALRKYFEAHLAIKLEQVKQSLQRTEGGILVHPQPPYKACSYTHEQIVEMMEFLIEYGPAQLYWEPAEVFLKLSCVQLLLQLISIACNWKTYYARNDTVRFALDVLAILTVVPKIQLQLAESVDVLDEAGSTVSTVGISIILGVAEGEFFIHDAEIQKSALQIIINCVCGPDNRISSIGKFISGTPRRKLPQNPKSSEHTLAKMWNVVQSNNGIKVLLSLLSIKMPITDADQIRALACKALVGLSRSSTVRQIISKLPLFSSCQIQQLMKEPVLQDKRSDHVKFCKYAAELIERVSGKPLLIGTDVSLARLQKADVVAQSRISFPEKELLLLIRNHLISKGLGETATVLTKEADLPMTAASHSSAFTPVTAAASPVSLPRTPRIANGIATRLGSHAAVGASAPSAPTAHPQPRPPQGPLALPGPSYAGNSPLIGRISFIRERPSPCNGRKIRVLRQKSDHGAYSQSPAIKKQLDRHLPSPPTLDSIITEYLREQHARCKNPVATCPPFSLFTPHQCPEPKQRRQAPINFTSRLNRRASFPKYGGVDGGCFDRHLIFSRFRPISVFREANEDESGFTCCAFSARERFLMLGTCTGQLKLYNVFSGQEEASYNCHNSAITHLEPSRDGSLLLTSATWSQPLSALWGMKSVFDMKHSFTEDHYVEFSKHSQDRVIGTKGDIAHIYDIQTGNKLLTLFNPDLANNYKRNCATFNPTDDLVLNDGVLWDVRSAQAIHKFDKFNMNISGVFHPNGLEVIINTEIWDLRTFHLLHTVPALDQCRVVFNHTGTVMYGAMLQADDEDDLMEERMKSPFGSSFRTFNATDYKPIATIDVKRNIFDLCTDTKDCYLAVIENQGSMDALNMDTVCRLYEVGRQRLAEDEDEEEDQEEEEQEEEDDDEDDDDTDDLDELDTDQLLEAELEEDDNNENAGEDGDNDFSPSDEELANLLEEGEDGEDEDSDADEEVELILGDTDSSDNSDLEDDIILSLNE
SMILES | association rate constant [M⁻¹ s⁻¹]
C[C@@H]1CN(c2ccc(-c3cc(C(=O)NCCOCCOCCOCCOCCOCCOCCNC(=O)/C=C/c4[nH]cc(C(=O)N[C@@H](CC(N)=O)c5ccc(F)c(Cl)c5)c4-c4ccc(Cl)cc4F)ccc3F)cc2NC(=O)c2ccc(F)cc2C(F)(F)F)C[C@H](C)N1C | 446000
C[C@@H]1CN(c2ccc(-c3cc(C(=O)NCCCNC(=O)/C=C/c4[nH]cc(C(=O)N[C@@H](CC(N)=O)c5ccc(F)c(Cl)c5)c4-c4ccc(Cl)cc4F)ccc3F)cc2NC(=O)c2c[nH]c(=O)cc2C(F)(F)F)C[C@H](C)N1C | 53600
C[C@@H]1CN(c2ccc(-c3cc(C(=O)NCCOCCOCCOCCOCCNC(=O)Cn4cc(-c5[nH]cc(C(=O)N[C@@H](CC(N)=O)c6ccc(F)c(Cl)c6)c5-c5ccc(Cl)cc5F)cn4)ccc3F)cc2NC(=O)c2c[nH]c(=O)cc2C(F)(F)F)C[C@H](C)N1C | 159000

Block 2 — action: inhibitor; concentration: 10 µM; relative to: control
Target: Diamine acetyltransferase 1 (Homo sapiens, UniProt P21673)
Target sequence (P21673 1-171): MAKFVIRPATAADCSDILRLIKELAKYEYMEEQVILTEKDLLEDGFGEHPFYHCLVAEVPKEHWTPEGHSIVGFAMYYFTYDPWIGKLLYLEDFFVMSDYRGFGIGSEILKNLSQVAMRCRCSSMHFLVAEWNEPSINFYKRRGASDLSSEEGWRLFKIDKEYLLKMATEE
SMILES | remaining activity
CCCCCCCCCCCCCCCCCCCCCCCCCCCCCCO | 90.2%
Nc1ncnc2c1ncn2[C@@H]1O[C@H](CO)[C@@H](O)[C@H]1O | 95.7%
CC(=O)c1ccccc1 | 86.1%
OCC(O)CO | 123%
COc1ccc(C(C)=O)c(O)c1 | 88.5%
CC[C@H](CC[C@@H](C)[C@H]1CC[C@H]2[C@@H]3CC=C4C[C@@H](O[C@@H]5O[C@H](CO)[C@@H](O)[C@H](O)[C@H]5O)CC[C@]4(C)[C@H]3CC[C@]12C)C(C)C | 88%
O=C(OC[C@H]1O[C@@H](OC(=O)c2cc(O)c(O)c(O)c2)[C@H](OC(=O)c2cc(O)c(O)c(O)c2)[C@@H](OC(=O)c2cc(O)c(O)c(O)c2)[C@@H]1O)c1cc(O)c(O)c(O)c1 | 93.9%
O=c1cc(-c2ccc(O)c(O)c2)oc2cc(O)cc(O)c12 | 99.5%
OC[C@H]1O[C@@](CO)(OC[C@@]2(OC[C@@]3(OC[C@@]4(OC[C@@]5(O[C@H]6O[C@H](CO)[C@@H](O)[C@H](O)[C@H]6O)O[C@H](CO)[C@@H](O)[C@@H]5O)O[C@H](CO)[C@@H](O)[C@@H]4O)O[C@H](CO)[C@@H](O)[C@@H]3O)O[C@H](CO)[C@@H](O)[C@@H]2O)[C@@H](O)[C@@H]1O | 109%
COc1cc2c(cc1O)CC[N+](C)(C)[C@@H]2Cc1ccc(O)cc1 | 115%
O=C(/C=C/c1ccc(O[C@@H]2O[C@H](CO)[C@@H](O)[C@H](O)[C@H]2O)cc1)c1ccc(O)cc1O | 110%
C[C@@H](O)[C@@H](C)O | 89.7%
C=CCSC | 74.6%
OCCc1ccccc1 | 85.2%
C/C1=C\CC/C(C)=C/CC(C)(C)/C=C/C1 | 98.7%
O=Cc1ccc(O)cc1 | 106%
COc1c2occc2c(OC)c2c(=O)cc(C)oc12 | 103%
C/C=C(\CC[C@@H](C)[C@H]1CC[C@H]2[C@@H]3CC=C4C[C@@H](O)CC[C@]4(C)[C@H]3CC[C@]12C)C(C)C | 112%
Oc1cc(O)c2cc(O)c(-c3ccc(O)c(O)c3)[o+]c2c1 | 99.8%
CC1(C)CC[C@]2(C(=O)O)CC[C@]3(C)C(=CC[C@@H]4[C@@]5(C)CC[C@H](O)[C@@](C)(CO)[C@@H]5CC[C@]43C)[C@@H]2C1 | 97.9%

Block 3 — read-out: cell-free assay; technique: competition with immobilised ligand; concentration: 1 µM
Compound: CCCCN(CCCC)C(=O)CN1C[C@@H](c2cc(OC)c3c(c2)OCO3)[C@H](C(=O)O)[C@H]1CC(C)(C)CCC
target | remaining binding
Casein kinase I isoform delta (CSNK1D, Homo sapiens, UniProt P48730) | 98.9%
Dual specificity mitogen-activated protein kinase kinase 4 (MAP2K4, Homo sapiens, UniProt P45985) | 93.3%
5'-AMP-activated protein kinase catalytic subunit alpha-1 (PRKAA1, Homo sapiens, UniProt Q13131) | 96.7%
Serine/threonine-protein kinase 25 (STK25, Homo sapiens, UniProt O00506) | 88.1%
Hepatocyte growth factor receptor (MET, Homo sapiens, UniProt P08581) | 100%
RAC-alpha serine/threonine-protein kinase (AKT1, Homo sapiens, UniProt P31749) | 85.7%
Mitogen-activated protein kinase kinase kinase 5 (MAP3K5, Homo sapiens, UniProt Q99683) | 100%
Ribosomal protein S6 kinase alpha-4, C-terminal kinase domain (RPS6KA4, Homo sapiens, UniProt O75676) | 97.2%
Rhodopsin kinase GRK1 (GRK1, Homo sapiens, UniProt Q15835) | 100%
Mitogen-activated protein kinase kinase kinase 7 (MAP3K7, Homo sapiens, UniProt O43318) | 84.7%
Maternal embryonic leucine zipper kinase (MELK, Homo sapiens, UniProt Q14680) | 100%
Tyrosine-protein kinase Yes (YES1, Homo sapiens, UniProt P07947) | 95.3%
Tyrosine-protein kinase ABL1, phosphorylated (ABL1, Homo sapiens, UniProt P00519, T315I) | 89.2%
Calcium/calmodulin-dependent protein kinase kinase 2 (CAMKK2, Homo sapiens, UniProt Q96RR4) | 87.2%
Calcium/calmodulin-dependent protein kinase kinase 1 (CAMKK1, Homo sapiens, UniProt Q8N5S9) | 100%
Proto-oncogene tyrosine-protein kinase ROS (ROS1, Homo sapiens, UniProt P08922) | 100%

Block 4 — read-out: enzyme activity; action: inhibitor; concentration: 0.5 µM; relative to: control
Structure (SMILES): Nc1nc(Nc2ccc(S(N)(=O)=O)cc2)nn1C(=S)Nc1c(F)cccc1F
target | remaining activity
Serine/threonine-protein kinase 17A (STK17A, Homo sapiens, UniProt Q9UEE5) | 11.1%
Ribosomal protein S6 kinase alpha-5 (RPS6KA5, Homo sapiens, UniProt O75582) | 68.1%
Cyclin-dependent kinase 1, with cyclin B (CDK1, Homo sapiens, UniProt P06493) | -1.78%
Homeodomain-interacting protein kinase 2 (HIPK2, Homo sapiens, UniProt Q9H2X6) | 62.1%
Testis-specific serine/threonine-protein kinase 2 (TSSK2, Homo sapiens, UniProt Q96PF2) | 91.3%
MAP kinase-activated protein kinase 3 (MAPKAPK3, Homo sapiens, UniProt Q16644) | 89.6%
Ribosomal protein S6 kinase alpha-6 (RPS6KA6, Homo sapiens, UniProt Q9UK32) | 2.42%
Calcium/calmodulin-dependent protein kinase type II subunit beta (CAMK2B, Homo sapiens, UniProt Q13554) | 9.5%
Cyclin-dependent kinase 6, with cyclin D3 (CDK6, Homo sapiens, UniProt Q00534) | 7.69%
Tyrosine-protein kinase receptor UFO (AXL, Homo sapiens, UniProt P30530) | 34.2%
Tyrosine-protein kinase Blk (BLK, Homo sapiens, UniProt P51451) | 38.6%
Mitogen-activated protein kinase kinase kinase kinase 4 (MAP4K4, Homo sapiens, UniProt O95819) | 4.46%
Ephrin type-A receptor 4 (EPHA4, Homo sapiens, UniProt P54764) | 54.8%
Ephrin type-B receptor 4 (EPHB4, Homo sapiens, UniProt P54760) | 51%
Serine/threonine-protein kinase 16 (STK16, Homo sapiens, UniProt O75716) | 42.5%
Ephrin type-B receptor 1 (EPHB1, Homo sapiens, UniProt P54762) | 19.4%
Phosphorylase b kinase gamma catalytic chain, skeletal muscle/heart isoform (PHKG1, Homo sapiens, UniProt Q16816) | 26%
Serine/threonine-protein kinase WNK3 (WNK3, Homo sapiens, UniProt Q9BYP7) | 82.2%
Tyrosine-protein kinase Srms (SRMS, Homo sapiens, UniProt Q9H3Y6) | 94%
Cyclin-dependent kinase 4, with cyclin D3 (CDK4, Homo sapiens, UniProt P11802) | 3.67%
Homeodomain-interacting protein kinase 4 (HIPK4, Homo sapiens, UniProt Q8NE63) | 50.6%
3-phosphoinositide-dependent protein kinase 1 (PDPK1, Homo sapiens, UniProt O15530) | 19.3%
Dual specificity tyrosine-phosphorylation-regulated kinase 3 (DYRK3, Homo sapiens, UniProt O43781) | 98.5%

A few entries again (block 4):
target | remaining activity
Cyclin-dependent kinase 6, with cyclin D3 (CDK6, Homo sapiens, UniProt Q00534) | 7.69%
Tyrosine-protein kinase receptor UFO (AXL, Homo sapiens, UniProt P30530) | 34.2%
Tyrosine-protein kinase Blk (BLK, Homo sapiens, UniProt P51451) | 38.6%
Mitogen-activated protein kinase kinase kinase kinase 4 (MAP4K4, Homo sapiens, UniProt O95819) | 4.46%
Ephrin type-A receptor 4 (EPHA4, Homo sapiens, UniProt P54764) | 54.8%
Ephrin type-B receptor 4 (EPHB4, Homo sapiens, UniProt P54760) | 51%
Serine/threonine-protein kinase 16 (STK16, Homo sapiens, UniProt O75716) | 42.5%
